Assay results from different studies.
Numbered parts are unrelated; each lists some results of a single study.

Set 1
Target: Interferon regulatory factor 7, full length, phosphomimetic (IRF7, Homo sapiens, UniProt Q92985, residues 1-503, S101K/S471D/S472D/S475D/S476D/S477D/S483D/S484D/S487D)
Method: protein-binding microarray
Form: double-stranded DNA, one strand shown
Sample: in vitro
Tested at: 250 nM
Setting: 60-bp whole probe
Together with: salmon DNA 0.4 mg/ml
Baseline: random background probes
Direction: higher = stronger binding
Measurement: log fluorescence
Constant ends, left off below: GCCTAGCAC … GTCTTGATTCGCTTGACGCTGCTG
Residues (chain): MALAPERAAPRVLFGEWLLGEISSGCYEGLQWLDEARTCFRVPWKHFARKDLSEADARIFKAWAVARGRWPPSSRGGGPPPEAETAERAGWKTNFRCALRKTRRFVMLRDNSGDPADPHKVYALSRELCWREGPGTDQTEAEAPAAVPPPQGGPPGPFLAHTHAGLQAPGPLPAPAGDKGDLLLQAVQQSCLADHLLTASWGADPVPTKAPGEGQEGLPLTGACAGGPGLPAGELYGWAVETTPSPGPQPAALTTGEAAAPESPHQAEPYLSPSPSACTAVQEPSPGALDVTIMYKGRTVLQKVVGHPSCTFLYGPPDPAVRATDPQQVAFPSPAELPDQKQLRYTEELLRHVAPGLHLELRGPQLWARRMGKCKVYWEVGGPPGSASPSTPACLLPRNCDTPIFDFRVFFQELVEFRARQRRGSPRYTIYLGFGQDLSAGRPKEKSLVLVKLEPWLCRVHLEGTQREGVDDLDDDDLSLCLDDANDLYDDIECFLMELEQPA
Oligonucleotide = TTAGGTAGCGGGTATCGGTTAGTGCTA; value = -0.0282 z-score
Oligonucleotide = GACCAACTGAGTCTCGAGACGTGCTAG; value = 0.6 z-score
Oligonucleotide = TCAGTTTCTGGTTTATTACTGTGCTAG; value = 5.95 z-score
Oligonucleotide = TCAGATTTTGCTTTCATACTGTGCTAG; value = 0.237 z-score
Oligonucleotide = TTAGATCTGAGTTTCGATTAGTGCTAG; value = 7.34 z-score

Set 2
Target: Fragile X messenger ribonucleoprotein 1, C-terminal low-complexity region (Fmr1, Mus musculus, UniProt P35922)
Method: RNA Bind-n-Seq
Form: RNA
Sample: in vitro
Tested at: 200 nM
Setting: whole 134-nt RNA, ends assumed
Together with: 150 mM LiCl
Baseline: input library
Direction: higher = stronger binding
Measurement: log2 enrichment
All molecules: 7-deaza-guanosine replaces G
Constant ends, left off below: GGGAGUUCUACAGUCCGACGAUC … UGGAAUUCUCGGGUGUCAAGG
Oligonucleotide = ACCAUGCAGGUGGGCAUUUUUGGGAAGUGGGGCAAGGGGGGGAUAGGGAGGGGGGUAACACUUUGGGAACAGGUGGUCCCAGGUCGUUUC; value = 1.41
Oligonucleotide = AAGUCCUGUGCUACACAUCGUAUGUACCGAAUCGGGUGGGAAAAAAAGGGAAAGGGAAAGUAUUAUGUUACGCCGUUCGGAUCUGCACUU; value = -0.129
Oligonucleotide = ACCAUGCAGGUGGGCAUCUUUGGGAAGUGGGGCAAGGGGGGGAUAGGGCGGGGGGUAACACUUUGGGAACAGGUGGUCCCAGGUCGUUUC; value = 1.35
Oligonucleotide = UGGACAUGGAUUUUCAAGCCUACUUAGCUUCCUCUAGUGAAGAUGAAGAGGAGAUAGAAGAGGAGCUACAAGGUAUUGUUAAUCUUUCAG; value = -2.78
Oligonucleotide = CAAGUCCUGUGCUACACAUCGUAUGUACCGAAUCGGAAAAAGGUUUGGUUUUUGGAAAGUAUUAUGUUACGCCGUUCGGAUCUGCACUUC; value = -2.14
Oligonucleotide = CCUCAAGUCCUGUGCUACACAUCGUAUGUACCGAAUCGGAAAGGUUUGGAGGAAAGUAUUAUGUUACGCCGUUCGGAUCUGCACUUCCAG; value = -0.548

Set 3
Target: Histone acetyltransferase KAT6A, winged helix 1, GST fusion (KAT6A, Homo sapiens, UniProt Q92794, residues 1-85)
Method: protein binding microarray
Form: double-stranded DNA, one strand shown
Sample: in vitro
Tested at: not given
Setting: 8-mer, flanks averaged, mean of 2 arrays, mostly near background
Baseline: not given
Direction: higher = stronger binding
Measurement: E-score
Target sequence (chain): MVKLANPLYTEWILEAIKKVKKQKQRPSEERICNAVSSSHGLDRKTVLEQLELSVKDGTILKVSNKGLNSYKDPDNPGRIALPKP
Oligonucleotide = CATTAAAA; value = -0.0506
Oligonucleotide = GCCAGTTA; value = -0.125
Oligonucleotide = AGGGTTCA; value = -0.109
Oligonucleotide = ACGCGAAC; value = 0.0584
Oligonucleotide = CATCACGC; value = 0.14
Oligonucleotide = CGGCAAGA; value = 0.252
Oligonucleotide = GTCTCCTA; value = -0.269

Further values, each from its own experiment
Molecule = PhoQ, residues 284 288 289 292 302 303 QWQEDG; target = PhoP, residues 12 14 15 18 19 LHSVQ (Escherichia coli, UniProt P23836); test = Sort-seq, item: YFP reporter; test system = E. coli; conditions = PhoQ-PhoP variant library, together with: 10 µM Mg2+; how to read = baseline: high Mg2+ state, higher = stronger signaling; measurement = fold induction; value = 2.11
